Measurements collected from several papers.
Lines come from different studies, so protocols differ. “And” joins repeats or separate records; there may be more than shown.

SMILES	test	system	conditions	measurement	value
CCN(CC)CCOc1ccc(-c2nnn(Cc3ccc(OC)cc3)c2N)cc1	–	human liver microsomes	concentration not given, time not given	remaining compound	73.4%
C#Cc1c(F)ccc2cc(O)cc(-c3ncc4c(N5CC6CCC(C5)N6C(=O)OC(C)OC(=O)CC5CCCC5)nc(OC[C@@]56CCCN5C[C@H](F)C6)nc4c3F)c12 (stereo partly shown)	–	simulated gastric fluid	1 µM, 30 min, 37 °C	remaining prodrug	109%
CC[C@H](C)[C@H](NC(=O)[C@H](Cc1ccccc1)NC(=O)[C@H](CCC(=O)O)NC(=O)[C@H](CCCCN)NC(=O)[C@H](C)NC(=O)[C@H](C)NC(=O)[C@H](CCC(N)=O)NC(=O)CNC(=O)[C@H](CCC(=O)O)NC(=O)[C@H](CC(C)C)NC(=O)[C@H](Cc1ccc(O)cc1)NC(=O)[C@H](CO)NC(=O)[C@H](CO)NC(=O)[C@@H](NC(=O)[C@H](CC(=O)O)NC(=O)[C@H](CO)NC(=O)[C@@H](NC(=O)[C@H](Cc1ccccc1)NC(=O)[C@@H](NC(=O)CNC(=O)N(CCC(=O)O)NC(=O)[C@H](C)NC(=O)N(N)Cc1c[nH]cn1)[C@@H](C)O)[C@@H](C)O)C(C)C)C(=O)N[C@@H](C)C(=O)N[C@@H](Cc1c[nH]c2ccccc12)C(=O)N[C@@H](CC(C)C)C(=O)N[C@H](C(=O)N[C@@H](CCCNC(=N)N)C(=O)NCC(=O)N[C@@H](CCCNC(=N)N)C(=O)NCC(=O)O)C(C)C	HPLC-UV	Tris-HCl buffer	0.1 mmol/l, 24 h, pH 7.4, 37 °C	remaining peptide	> 95%
C[C@H](NC(=O)CNC(=O)[C@@H]1CCCN1C(=O)[C@H](CO)NC(=O)CNC(=O)[C@H](CO)NC(=O)[C@H](C)NC(=O)[C@H](CC(N)=O)NC(=O)[C@H](C)NC(=O)[C@H](CO)NC(=O)[C@H](C)NC(=O)[C@H](CO)NC(=O)[C@@H]1CCCN1C(=O)[C@H](Cc1ccccc1)NC(=O)[C@H](C)NC(=O)[C@H](CO)NC(=O)[C@@H]1CCCN1C(=O)[C@H](Cc1ccccc1)NC(=O)[C@@H](NC(=O)[C@H](CC(=O)O)NC(=O)[C@@H](N)CO)[C@@H](C)O)C(=O)N[C@@H](CCCNC(=N)N)C(=O)N[C@@H](CO)C(=O)O	–	50% mouse plasma	60 min	remaining peptide	1.02%
Cc1nnc(-c2ccc(CC(=O)NCCCC[C@H](NC(=O)c3ccc(OCc4ccc(B(O)O)cc4)c(-c4nc5ccccc5c(=O)[nH]4)c3)C(=O)NCC(=O)NCC(=O)NCC(=O)N[C@@H](Cc3ccccc3)C(=O)N[C@@H](Cc3ccccc3)C(=O)O)cc2)nn1	UPLC-MS/MS	human serum	100 µM, 1.5 h, 37 °C	remaining compound	79.8% and 85.1%
CC[C@H](C)[C@H](NC(=O)[C@@H](NC(=O)[C@@H](NC(=O)[C@@H](NC(=O)[C@@H](N)CCCCN)C(C)C)C(C)C)C(C)C)C(=O)N[C@H](C(N)=O)[C@@H](C)O	LC-MS	pronase digest	200 µM, 30 min, pH 7.5, 37 °C, together with: pronase 2.5 µg/mL	remaining intact peptide	89%
C=CCN1CCC23c4c5ccc(OC(=O)c6ccc(N)cc6)c4OC2C(=O)CCC3(O)C1C5 (stereo not shown)	–	rat plasma	0 h, no inhibitor	remaining compound	102% and 92.8% and 105%
C#Cc1c(F)ccc2cc(O)cc(-c3ncc4c(N5CC6CCC(C5)N6C(=O)OC(OC(=O)CCC)C(C)C)nc(OC[C@@]56CCCN5C[C@H](F)C6)nc4c3F)c12 (stereo partly shown)	–	simulated gastric fluid	1 µM, 30 min, 37 °C	remaining prodrug	95.6%
C=CCN1CCC23c4c5ccc(OC(=O)c6ccccc6)c4OC2C(=O)CCC3(O)C1C5 (stereo not shown)	–	rat plasma	1 h, no inhibitor	remaining compound	0%
C#Cc1c(F)ccc2cc(O)cc(-c3ncc4c(N5CC6CCC(C5)N6C(=O)OC(C)OC(C)=O)nc(OC[C@@]56CCCN5C[C@H](F)C6)nc4c3F)c12 (stereo partly shown)	–	simulated gastric fluid	1 µM, 30 min, 37 °C	remaining prodrug	94.6%

For quick reference, copied from above:
SMILES	test	system	conditions	measurement	value
C#Cc1c(F)ccc2cc(O)cc(-c3ncc4c(N5CC6CCC(C5)N6C(=O)OC(C)OC(C)=O)nc(OC[C@@]56CCCN5C[C@H](F)C6)nc4c3F)c12 (stereo partly shown)	–	simulated gastric fluid	1 µM, 30 min, 37 °C	remaining prodrug	94.6%
